Measurements pooled from the literature.
Numbered parts are unrelated; each lists some results of a single study. Substitutions count along the parent as printed.

Series 1
Target: CCNE2, cyclin fold, Cln2 fusion (human)
Technique: yeast growth competition, sequencing
Medium: yeast
Setting: strong parent motif
Relative to: not given
Reading: higher = stronger binding
Quantity: normalised enrichment score
Starting sequence: E2F1 docking peptide (human); PPVKRRLDFETDH; partner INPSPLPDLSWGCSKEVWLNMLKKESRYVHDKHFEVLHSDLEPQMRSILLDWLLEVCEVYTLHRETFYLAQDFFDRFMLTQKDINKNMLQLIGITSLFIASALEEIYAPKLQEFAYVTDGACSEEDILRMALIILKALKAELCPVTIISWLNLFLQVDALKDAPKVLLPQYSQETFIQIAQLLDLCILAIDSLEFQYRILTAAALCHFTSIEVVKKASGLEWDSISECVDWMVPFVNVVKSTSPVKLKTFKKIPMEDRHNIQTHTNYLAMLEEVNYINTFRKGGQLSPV
T11M: 5.89
K4A: 4.14
D12E: 5.78
R5E: -0.363
D12Y: 6.65
L7G: 0.133
D12A: 6.29
V3C: 5.2
D8V: 5.21
P2I: 4.15
V3A: 4.43
F9G: 0.195
D12K: 6.32
T11K: 5.76
R5K: 1.93
V3T: 4.27
E10A: 6.05
R6N: 1.1
D12F: 6.69
K4Q: 2.89
D12W: 6.75

Series 2
Target: PABPC1L2, full length, GST fusion (mouse, UniProt A0ABA7IW68)
Technique: RNAcompete
Molecule type: RNA
Medium: in vitro
Concentration: 20 nM
Setting: 7-mer, probes averaged, single round
Relative to: mean of 7-mers
Reading: higher = stronger binding
Quantity: 7-mer Z-score
Construct (chain): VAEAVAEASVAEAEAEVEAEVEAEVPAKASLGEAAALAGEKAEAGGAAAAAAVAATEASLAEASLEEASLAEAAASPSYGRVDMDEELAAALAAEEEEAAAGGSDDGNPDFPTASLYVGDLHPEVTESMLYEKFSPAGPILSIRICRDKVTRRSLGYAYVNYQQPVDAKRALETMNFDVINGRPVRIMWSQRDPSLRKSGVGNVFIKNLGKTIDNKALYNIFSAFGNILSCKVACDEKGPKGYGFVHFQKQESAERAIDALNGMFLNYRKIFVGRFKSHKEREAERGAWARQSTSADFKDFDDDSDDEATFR
AGACACC: -0.278
UCAGUUC: -0.427
AAGGAUC: 0.126
CAGCAAA: 0.898
ACCUGAU: -0.222
UUGACUC: -0.217
CAAGACU: 0.0424
GGUUUCG: -0.46
GCAUAAC: -0.0428
CUUCGUA: -0.3
GACAGCA: 0.00979
AUUGUCA: -0.209
UUAAGAU: -0.00652
CCCUUUC: -0.481
CCGGAAG: -0.0337
GCAAGGA: 0.273
AACCGCU: -0.177
GUUGCAU: -0.121

Series 3
Target: Histone acetyltransferase KAT6A, winged helix 2, GST fusion (KAT6A, Homo sapiens, UniProt Q92794, residues 85-181)
Technique: protein binding microarray
Molecule type: double-stranded DNA, one strand shown
Medium: in vitro
Concentration: not given
Setting: 8-mer, flanks averaged, mean of 2 arrays, mostly near background
Relative to: not given
Reading: higher = stronger binding
Quantity: E-score
Residues (chain): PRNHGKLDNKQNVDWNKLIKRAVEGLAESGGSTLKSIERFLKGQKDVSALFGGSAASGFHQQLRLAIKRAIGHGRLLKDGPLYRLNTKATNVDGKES
CGAGCAGA: 0.129
GAATTTAC: -0.00791
ACGCTCCA: 0.124
AACCTCTT: 0.0918
GTAATAAC: -0.243
CCCGTAGC: 0.018
CGCTCATC: 0.089
TACGGCCA: -0.0427
CATCTAAC: -0.0837
TAGATCCA: -0.158
AGCAGCGC: -0.0347
AACAAAGC: 0.153
GAACCCTC: -0.0538
AAACAGAT: -0.0869
AAAGGCTC: -0.0229
ACGAACTC: 0.0997
CCGGACCC: 0.167
CAAACGCC: -0.0538
AGGCACCA: 0.0192
CATCATTC: -0.163
TTATGAAA: 0.0393
ATCCCGAA: 0.16
ATGGATAC: 0.0615
GCCTCAGC: 0.0874
GCCGTGAA: 0.112

Series 4
Target: RNA binding protein fox-1 homolog 2, RRM domain, GST-SBP tag (RBFOX2, Homo sapiens, UniProt O43251-10, residues 100-194)
Technique: RNA Bind-n-Seq
Molecule type: RNA
Medium: in vitro
Concentration: 365 nM
Setting: natural RNA segment, single round, ends assumed
Relative to: no-protein control
Reading: higher = stronger binding
Quantity: RBNS enrichment (R)
Residues (chain): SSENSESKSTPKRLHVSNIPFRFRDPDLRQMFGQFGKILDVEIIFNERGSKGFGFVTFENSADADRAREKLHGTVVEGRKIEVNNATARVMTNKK
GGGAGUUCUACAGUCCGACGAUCCUCCCAGGUGGGAGUGCCUCUAGUCUGGUGGUCCUCAAAGACUCAUCCACAGCAGCAUCUGCCCAUCCCAGGCUCCUCUCUCCUCAGACUCCUCCUAUCUGGCUUGUGCUUGGAAUUCUCGGGUGCCAA: 0.634
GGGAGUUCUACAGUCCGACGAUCCUACUCUUGUGUUUAGGGGAUGGUGGGAACAUAUCCCAGUGCCCUUGCCUCAUAAUAGAUGUGGUGACUCUCCCGGUAGACCCUAGCAAGGGUCCUCCAUGGUGGUGAGGUGGAAUUCUCGGGUGCCAA: 0.174
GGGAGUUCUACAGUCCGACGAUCGUAAUCUGGUAUGCCAUAGGAUGUCAGAUAAUACCACUGGUUAAAAUAAAGCCUAGUUUUCAAAUUCAGUUGGUUUCUCAGGUUUAUUCUGUUCCUCUUCUUGGUUGUGGUGGAAUUCUCGGGUGCCAA: 0.552
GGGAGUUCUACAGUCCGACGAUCCUACAGCAUCAUUGCAUAAUUCUUGAUGGUAAUAAAUUUGAAUAAUCAGAUUUCUUACAAACCAGGACUCUGUCUCAGCUGUUUCUGGAACCAAAGAGUCUGGGCCAAAUUGGAAUUCUCGGGUGCCAA: 0.813
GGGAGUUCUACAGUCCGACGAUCUAUUAAUCAGGGGCUGGAGGAGUAUACAUGAUUCUUGUGUUCAUGUUGUCAUUUGAAACUCUUCACAUAAAAUUUUCUAAUAUUCAUUUGGAAAACCUCUCCACUGGAGAUGGAAUUCUCGGGUGCCAA: 0.368
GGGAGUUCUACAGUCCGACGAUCCUGAGUGAAGGAAGGGGAGCAAGGGGUGGUGCCCCUGGUCCCAGCAUGCCCCGCGCCUGAGACUGGCUGGAAAUGCUCUGACUCCUGUGAAGGCACAGCCAGCGUUGUGGUGGAAUUCUCGGGUGCCAA: 21.8
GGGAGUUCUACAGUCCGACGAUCCCAGGAAGUCCAGUGUACAUUACAGAUUUUCUGGGAGAAAUAGUCCUUCCAGAGAAAGGAUUCCUUCCCAGCCUCCAGGCUGGUGUCUCAUGAGGUGAGGAGGCUGGCCCUGGAAUUCUCGGGUGCCAA: 0.4
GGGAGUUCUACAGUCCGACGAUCCUGGCCGCAGGGAGUUGUUCUGCUUCUGCUUUACCUCUCAGGACCAUUCCCAGGAGGAAAAGGUGGCAGAGAGGGCAGUACUGAGUAUGUCAGAAGAGCCCUCCUGGUUUUGGAAUUCUCGGGUGCCAA: 0.19
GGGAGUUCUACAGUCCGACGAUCGGUGAUGACGUCAGUCUAAUGAGUUGUUAGGUCACUUGGGAAGGGGAAGAAAUUUAAAUGGGGGAAAAUAAGCCAUCUUUUUAAACAAAAAUUAUUUUACCUACAGAGAGUGGAAUUCUCGGGUGCCAA: 0.566
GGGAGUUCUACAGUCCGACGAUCUGGUCCUUCCUGUUCUCCACCCUGGUUUCUUAAGUAGUUGGUUCUUCUCCUUAGUCUUCCUGACUCAACCCGUGGUCUCUGUCCCGCUCCCCCUCUCUGUGGCAGUUUCAUGGAAUUCUCGGGUGCCAA: 0.602
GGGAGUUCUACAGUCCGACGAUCCUGGAAGAAGUUGACAUCUAUGAGAAACAAUCCAAAGAAGAAACGGAUUCUGUAGUGCUGAUAGAAAACCUGAAGAAAGCAGCUCCUUGAUGGGGAGAAGUGAUUUCUUUUGGAAUUCUCGGGUGCCAA: 0.271
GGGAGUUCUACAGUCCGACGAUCCCAAGGAUAACUGUAUGCUAUCCUUUCCCUAUCGGUCCCACUGUGCUGUGUUCAGCACAUUUUAGGUAACAGGACACAACUUGAAACUUUUCAGGAGAGCCUAUUGCCCUUGGAAUUCUCGGGUGCCAA: 0.26

Series 5
Target: Sal-like protein 4, full length isoform A (SALL4, Homo sapiens, UniProt Q9UJQ4, residues 1-1053)
Chain of UniProt Q9UJQ4 (whole entry, looked up): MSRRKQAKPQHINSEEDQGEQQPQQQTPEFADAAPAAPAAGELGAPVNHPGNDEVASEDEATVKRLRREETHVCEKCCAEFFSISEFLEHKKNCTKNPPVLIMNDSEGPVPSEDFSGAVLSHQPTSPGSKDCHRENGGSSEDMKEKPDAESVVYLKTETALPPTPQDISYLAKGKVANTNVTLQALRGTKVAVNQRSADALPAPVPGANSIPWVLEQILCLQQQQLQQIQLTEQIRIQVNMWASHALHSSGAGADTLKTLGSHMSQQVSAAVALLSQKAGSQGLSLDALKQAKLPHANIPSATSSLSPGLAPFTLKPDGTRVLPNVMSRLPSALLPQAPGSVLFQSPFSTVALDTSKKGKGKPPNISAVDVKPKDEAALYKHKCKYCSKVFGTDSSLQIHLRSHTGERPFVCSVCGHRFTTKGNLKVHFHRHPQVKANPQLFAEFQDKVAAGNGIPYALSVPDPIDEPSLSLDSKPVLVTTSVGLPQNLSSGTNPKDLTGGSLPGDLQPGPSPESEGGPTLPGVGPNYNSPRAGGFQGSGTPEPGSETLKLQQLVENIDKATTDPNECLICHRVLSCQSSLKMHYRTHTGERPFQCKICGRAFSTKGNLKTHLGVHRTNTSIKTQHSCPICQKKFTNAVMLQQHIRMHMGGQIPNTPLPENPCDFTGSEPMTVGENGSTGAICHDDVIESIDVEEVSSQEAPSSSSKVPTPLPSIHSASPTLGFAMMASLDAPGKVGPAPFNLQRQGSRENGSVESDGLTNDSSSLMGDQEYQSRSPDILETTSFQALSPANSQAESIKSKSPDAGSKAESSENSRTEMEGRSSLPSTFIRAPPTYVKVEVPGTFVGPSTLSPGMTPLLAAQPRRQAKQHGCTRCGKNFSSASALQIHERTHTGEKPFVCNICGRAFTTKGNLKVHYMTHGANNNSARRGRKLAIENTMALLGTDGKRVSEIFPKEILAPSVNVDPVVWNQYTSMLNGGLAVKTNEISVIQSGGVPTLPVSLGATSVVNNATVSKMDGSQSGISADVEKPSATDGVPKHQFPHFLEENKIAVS
Technique: universal PBM
Molecule type: double-stranded DNA, one strand shown
Medium: in vitro
Concentration: 600 nM
Setting: 8-mer, flanks averaged, mean of replicates
Reading: higher = stronger binding
Quantity: E-score
CCTGAGGC: -0.395
CAGTGCCA: -0.228
TAATTTCA: 0.323
AGTTACAA: 0.162
ACGCTATA: 0.184
AGGCGTCG: -0.306
TCTTTGCA: 0.211
AGAATAGG: 0.158
ACACGGGT: -0.146
AGCTTACG: -0.115
CTCCAACA: -0.00156
AATGTAAG: 0.284
AGGAAGTC: -0.0235
TAGAGCAA: -0.0123
ATCCAGGA: -0.0814
CTCCCCTC: -0.343
CGTGTGCC: -0.214
GGTGCACC: -0.342
ATTGACCG: -0.0137
AAATAACT: 0.321

Series 6
Target: Ras GTPase-activating protein-binding protein 1, full length (G3BP1, Homo sapiens, UniProt Q13283)
Chain of UniProt Q13283 (whole entry, looked up): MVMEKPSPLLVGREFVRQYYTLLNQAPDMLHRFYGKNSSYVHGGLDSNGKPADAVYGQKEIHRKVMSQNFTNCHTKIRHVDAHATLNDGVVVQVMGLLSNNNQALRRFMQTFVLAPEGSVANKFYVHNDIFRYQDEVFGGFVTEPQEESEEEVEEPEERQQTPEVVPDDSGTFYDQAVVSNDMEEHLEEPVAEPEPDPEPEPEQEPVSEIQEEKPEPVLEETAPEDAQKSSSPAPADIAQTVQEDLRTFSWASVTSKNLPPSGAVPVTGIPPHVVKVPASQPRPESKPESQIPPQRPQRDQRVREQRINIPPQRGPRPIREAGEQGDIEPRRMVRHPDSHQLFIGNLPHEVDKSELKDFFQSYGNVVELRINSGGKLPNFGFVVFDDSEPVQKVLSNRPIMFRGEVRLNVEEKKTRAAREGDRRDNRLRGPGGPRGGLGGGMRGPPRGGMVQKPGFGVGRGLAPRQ
Technique: RNA Bind-n-Seq
Molecule type: RNA
Medium: in vitro
Concentration: 200 nM
Setting: whole 134-nt RNA, ends assumed
With: 150 mM LiCl
Relative to: input library
Reading: higher = stronger binding
Quantity: log2 enrichment
Each molecule: 7-deaza-guanosine replaces G
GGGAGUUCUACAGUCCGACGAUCUCAAGUCCUGUGCUACACAUCGUAUGUACCGAAUCGGUGGAAAAAGGAAAAAGGAAAGUAUUAUGUUACGCCGUUCGGAUCUGCACUUCCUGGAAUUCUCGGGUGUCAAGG: -0.789
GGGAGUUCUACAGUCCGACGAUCUUCUCCUGCCCCGAAGCUCGCUGUGCGUGUGCGUGUGUGUGUCCCUCCGCCAACGCCGCCACCUCAGCCCGGCAAAUGAACUCCGUCCGAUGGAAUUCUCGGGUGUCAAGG: -0.516
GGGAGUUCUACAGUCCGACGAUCUGGCCCUGGUGGCAUGCGGGGAGGAAGAGGUGGCCUCCUGGAUCGUGGUGGUCCCGGUGGAAUGUUCAGAGGUGGCCGUGGUGGAGACAGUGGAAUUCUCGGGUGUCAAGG: 0.172
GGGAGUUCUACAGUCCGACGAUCCUCAAGUCCUGUGCUACACAUCGUAUGUACCGAAUCGGGUUGGGUUGGUUGGGGAAAGUAUUAUGUUACGCCGUUCGGAUCUGCACUUCCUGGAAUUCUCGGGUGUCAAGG: 0.372
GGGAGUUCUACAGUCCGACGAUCCAAGUCCUGUGCUACACAUCGUAUGUACCGAAUCGGGGCCCGGGCCCGGGCCCGGGAAAGUAUUAUGUUACGCCGUUCGGAUCUGCACUUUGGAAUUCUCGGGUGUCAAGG: -0.525
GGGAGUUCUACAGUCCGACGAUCAUUAUAGACUUGAUCAAAACACAGGAAAAGGCAACUCCCAGGAACUUUCCGCCACGAUUCCAGGAUGGAUAUUACAGCUGACAGCUUUUCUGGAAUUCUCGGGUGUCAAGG: -1.14
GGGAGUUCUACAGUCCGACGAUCAAGUCCUGUGCUACACAUCGUAUGUACCGAAUCGGGGAAAGGAAAGGGGAAAGGGGAAAGUAUUAUGUUACGCCGUUCGGAUCUGCACUUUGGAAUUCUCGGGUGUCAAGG: 0.417
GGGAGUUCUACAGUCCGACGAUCCAAGUCCUGUGCUACACAUCGUAUGUACCGAAUCGGGGUGGGGUUUGGGGAGGGGAAAGUAUUAUGUUACGCCGUUCGGAUCUGCACUUCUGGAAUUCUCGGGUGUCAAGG: -0.562
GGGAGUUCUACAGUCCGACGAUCCCUGUGCUACACAUCGUAUGUACCGAAUCGGGCCCCCCCGGCCCCCCCGGCCCCCCCGGGAAAGUAUUAUGUUACGCCGUUCGGAUCUGCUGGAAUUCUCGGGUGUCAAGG: 0.205
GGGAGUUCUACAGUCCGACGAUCUGGCCCUGGUGGCAUGCGGGGAGGAAGAGGUGGCCUCAUGGAUCGUGGUGGUCCCGGUGGAAUGUUCAGAGGUGGCCGUGGUGGACACAGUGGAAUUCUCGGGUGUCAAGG: 0.00917
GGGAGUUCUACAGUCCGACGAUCUACAUUCUUUACCCCUUGUUUUAAUUUGAACCCCACCAUAUGGAUUUUUUUCCUUAAGAAAAUCUCCUUUUAGGAGAUCAUGGUGUCACAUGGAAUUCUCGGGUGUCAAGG: 1.58
